Results collected from several papers.
Every numbered part comes from another study and shows a few of its results, in no order. Positions count from the first letter of the parent shown.

Series 1 — target: CCND3, cyclin fold, Cln2 fusion (human); method: yeast growth competition, sequencing; matrix: yeast; notes: weak parent motif; relative to: not given; direction: higher = stronger binding
Starting sequence: PKN2 docking peptide (human); VSAVQKLDFSDTM; partner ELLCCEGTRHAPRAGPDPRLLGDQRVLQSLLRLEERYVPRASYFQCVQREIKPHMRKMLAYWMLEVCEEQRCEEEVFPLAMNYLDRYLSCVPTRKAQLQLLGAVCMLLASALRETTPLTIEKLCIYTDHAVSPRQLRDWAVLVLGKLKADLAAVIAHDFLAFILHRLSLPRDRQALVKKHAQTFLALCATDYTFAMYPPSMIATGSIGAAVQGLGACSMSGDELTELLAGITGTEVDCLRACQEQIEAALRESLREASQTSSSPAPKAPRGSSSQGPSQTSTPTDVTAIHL
| Change | normalised enrichment score |
| --- | --- |
| VSAVQKLDFSDTE [M13E] | 0.0855 |
| VSAVQKLDFSDMM [T12M] | 0.0533 |
| VSAVQKLDFYDTM [S10Y] | 0.156 |
| VSAVQKLDFSDPM [T12P] | 0.221 |
| VSAVQKMDFSDTM [L7M] | 0.119 |
| VSAVQSLDFSDTM [K6S] | 0.142 |
| VSAVQKLDQSDTM [F9Q] | 0.0745 |
| VSAVQKLDFSDTH [M13H] | 0.116 |
| VFAVQKLDFSDTM [S2F] | 0.0641 |
| VSRVQKLDFSDTM [A3R] | 0.0927 |
| VSARQKLDFSDTM [V4R] | 0.126 |
| VSAVQKLDFSDVM [T12V] | 0.0652 |
| ESAVQKLDFSDTM [V1E] | 0.0565 |
| VGAVQKLDFSDTM [S2G] | 0.0819 |
| VSAVQKLDKSDTM [F9K] | 0.176 |
| VSAVQRLDFSDTM [K6R] | 0.111 |
| VSAVQKNDFSDTM [L7N] | 0.174 |
| VSANQKLDFSDTM [V4N] | 0.064 |
| VSHVQKLDFSDTM [A3H] | 0.0869 |
| VSAVQYLDFSDTM [K6Y] | 0.0952 |
| VSAVQGLDFSDTM [K6G] | 0.151 |
| VSAVQKLDFSPTM [D11P] | 0.138 |
| VSAVQKLDFGDTM [S10G] | 0.102 |
| VSAVQKLDFWDTM [S10W] | 0.0965 |
| VSAVQKLDFIDTM [S10I] | 0.169 |

Series 2 — method: DHFR PCA, deep sequencing; matrix: yeast; together with: (+)-ABA 17 µM; relative to: wild-type fitted maximum; direction: higher = stronger binding
Target: ABI1, truncated, D143A, DHFR fusion (Arabidopsis thaliana)
Notes: methotrexate growth selection, single substitutions
Starting sequence: PYL1, truncated, DHFR fusion (Arabidopsis thaliana); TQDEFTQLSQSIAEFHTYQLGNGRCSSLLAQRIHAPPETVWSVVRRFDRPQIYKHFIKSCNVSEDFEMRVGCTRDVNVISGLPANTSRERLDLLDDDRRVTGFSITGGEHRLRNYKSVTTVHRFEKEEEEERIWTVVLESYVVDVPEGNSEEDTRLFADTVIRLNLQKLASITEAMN
| Change | relative binding score |
| --- | --- |
| R98H | 61.6% |
| R113M | 78.7% |
| R90C | 55.9% |
| V145N | 15.5% |
| M68V | 77.6% |
| I33P | 10.3% |
| L91N | -11.3% |
| L166V | -8.02% |
| S171M | 81.4% |
| E129W | 71.6% |
| S26I | 27.6% |
| G107C | 28.7% |
| N149F | -2.61% |
| R155V | 76.9% |
| Q19N | 82.8% |
| Y53R | 15% |
| A170E | 29.2% |
| G71M | -9.16% |
| R123S | 92.4% |

Series 3 — method: RNA Bind-n-Seq; molecule type: RNA; matrix: in vitro; concentration: 365 nM; relative to: no-protein control; direction: higher = stronger binding
Target: RNA binding protein fox-1 homolog 2, RRM domain, GST-SBP tag (RBFOX2, Homo sapiens, UniProt O43251-10, residues 100-194)
Notes: natural RNA segment, single round, ends assumed
Shared flanks, not repeated: GGGAGUUCUACAGUCCGACGAUC … UGGAAUUCUCGGGUGCCAA
Residues (chain): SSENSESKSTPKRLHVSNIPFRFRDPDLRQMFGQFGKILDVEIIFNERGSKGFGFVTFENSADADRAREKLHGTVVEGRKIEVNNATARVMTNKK
| Strand | RBNS enrichment (R) |
| --- | --- |
| GUUGUCCUGGGUCUGGCAGUGGUUGUGAUUUAUAGCCAAUUGUGCUAAAGGAUUUUUCUACCUUGAGAUCUCCCGAGAAAUGAAAACUCAGGCAGUUUAGUCCAUAGUAG | 0.489 |
| GGUCAGUUUCAUGGUGAUGGCUACUGUGUACUGUGUAGGUUACCUGGGUCAAGACUGGUCCAGCUUAGAGUGCAUGCUCUGUUCAUACUCAGCCUAGCUCACAGUGACUU | 2.62 |
| GAAGAUUUAUUGCAUUCUCCAUUUGUUAUCUGGGGACUUGUUAAAUAGAAACUGAAACUACUCUUGAAAAACAGGCAGCUCCUAAGAGCCACAGGUCUUGAUGUGACUUU | 0.459 |
| CACCCUAGCCUAGGGCUUCGACAUUGCAUGCUGGGAUCCAGCUCCUACCCUUCCUGCACUCCCUUCCCCAGUUCUGCUCAGCUCAGCUGUGGGAGGUAAACUUAAGCUGA | 10.9 |
| GCGGUGACUUUCUUUUUUUGUAAAGCAAAUUACUUAAGAAAAUACAAUUCACUUGAAUUUGACAAACUGAAACAGAUGGGUUUUCUGGGUUCUCUGAUAACCUAUGGGAA | 0.304 |
| UAUAUUGUAUUUAUAUAUAAAAAGAAACGUCUACGUAUGCAUGCUAAAUUAUUAUUUAGCUUCUCCCAUCGCCCACGAUGGAAUGUAAAAUAAAUUGGUUUUGUACUGGA | 0.886 |
| UUGUUCCGGUUAAUUCCAGAAGACAUUUCAAACAUUUUUCUUACACCAUAUAAUAAAAAUACUUAACUAAAUUGACAGUUAUAAAAAUAAAUCAGUGAAAUGUACCUUAU | 0.566 |
| CUAGAACCACCUGCACCUUGAGAUGUUUCUGUAAAUGGGUACUUGUGAUCACACUACGGGAAUCUCUGUGGUAUAUACCUGGGGCCAUUCUAGGCUCUUUCAAGUGACUU | 0.224 |
| UUUUUUUUCUUUUCUGCAAACCUUUGCUUUCCCAUAAACUGUAGCUUCCCCGUGACUAGGAAUUUAGCCAUAAGACUAGUUCAAGGCUAACCACCAAGCUUCCCUUUGAC | 0.43 |
| GGGGCAUCAGCUCUGGUGUCCCUGAGAGACGAGAAGCCUGUGGGAACGACAGAAGAACAUGGCAUUUUUAUAAAUUAUUUUUUUGAAAUAAAUCUCUGUGUGCCUGGUGG | 0.72 |
| GAGUACUCAGGAACUUGACUGUAGUAGAAUACUGCUAGUUUCUUAAUUUUAAUUCACAUCACCUGAAAAGUAAAACAACAGGCUUUGCCAAGUGGAUGCUUUUCAGUAAC | 0.404 |
| CUCCCCCAGCCAGGUUCUGCUCUGGCUGGGCCCUUGGCUGGACUCCUAUUCAAAUUUAUUUGACGUUUUAUUUUGGUUUUCCUCACCCCCUCAAACUGUCGGGGAGACCC | 0.554 |

Series 4 — method: protein-binding microarray; molecule type: double-stranded DNA, one strand shown; matrix: in vitro; concentration: 250 nM; notes: 60-bp whole probe; together with: salmon DNA 0.4 mg/ml; relative to: random background probes; direction: higher = stronger binding; shared flanks, not repeated: GCCTAGCAC … GTCTTGATTCGCTTGACGCTGCTG
Target: Interferon regulatory factor 5, full length, phosphomimetic (IRF5, Homo sapiens, UniProt Q13568-2, residues 1-514, K96S/S451D/S453D/S456D/S462D)
| Strand | log fluorescence [z-score] |
| --- | --- |
| GACGGTTCCCTTTTCGTGACGTGCTAG | 0.647 |
| TCCTCTCTCTATTCAGAGGAGTGCTAG | 0.504 |
| TGTCTTTTCACTTTCTTTAAGTGCTAG | 4.31 |
| GACGGTTTCGGGACTGGTGACGTGCTA | 4.94 |
| CAGCTTTTATCCCTGACAGAGTGCTAG | 0.141 |
| GACGAACTGAGTTTTGAGACGTGCTAG | -0.00156 |
| TTAGGTTTTGGTTCCGGTTAGTGCTAG | 4.1 |
| TTAGGTTTCCTTCTCCTGTAGTGCTAG | 0.92 |
| TCAAATTCTCATTTCCAACTGTGCTAG | 0.638 |
| CTCAGTTTATTTATTTTTACGTGCTAG | 0.692 |
| TTAGGTTCCGGTTACGGTTAGTGCTAG | 2.26 |
| GACGGACTGGGTCTCAGGACGTGCTAG | -0.623 |
| GACGAACTGCGGTTTCGAGACGTGCTA | 1.68 |
| TCATCATTGCCTATTTTTCCGTGCTAG | 0.709 |
| TTAGGTCTGGGGTTTCGGTTAGTGCTA | 6.19 |
| TTAGGCTTCGGGTATCGGTTAGTGCTA | 3.49 |
| GTTTTTTAAAGTTTCAGTGAGTGCTAG | 1.96 |
| GACGATGTCAGTTCCGAGACGTGCTAG | -0.135 |
| TCATTTTTCTAATTGAAACTGTGCTAG | 1.33 |
| GACGATATCGGGTATCGACACGTGCTA | 2.95 |
| TTAGATTTCAGTCTCGATTCGTGCTAG | 2.43 |
| TGTTGGTAATTTTGCTATTTGTGCTAG | 0.56 |
| GACGATTTCGGGTTTCGATACGTGCTA | 7.66 |

Series 5 — method: protein-binding microarray; molecule type: double-stranded DNA, one strand shown; matrix: in vitro; concentration: 0.8 µM; notes: whole 60-bp probe, no competitor; direction: higher = stronger binding; shared flanks, not repeated: … GTCTTGATTCGCTTGACGCTGCTG
Target: Centromere-binding protein 1, full length, N-terminal tag (CBF1, Saccharomyces cerevisiae, UniProt P17106, residues 1-351)
UniProt P17106, sequence (whole entry, looked up): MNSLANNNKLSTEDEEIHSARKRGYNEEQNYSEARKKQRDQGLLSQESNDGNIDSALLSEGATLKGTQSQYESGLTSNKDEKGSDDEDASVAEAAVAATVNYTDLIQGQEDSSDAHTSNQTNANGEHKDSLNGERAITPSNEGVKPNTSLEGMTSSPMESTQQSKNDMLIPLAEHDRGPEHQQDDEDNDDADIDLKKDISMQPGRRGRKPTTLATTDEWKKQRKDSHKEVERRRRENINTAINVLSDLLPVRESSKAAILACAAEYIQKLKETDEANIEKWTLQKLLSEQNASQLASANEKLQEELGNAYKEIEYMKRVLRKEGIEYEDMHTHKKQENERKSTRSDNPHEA
| Strand | fluorescence intensity [a.u.] |
| --- | --- |
| CTAGCCGTTCAATGTCACGTGACACAAAGTTGTTTC | 51400 |
| CTAGTTCTTTGCGAGCATGTGCTATACAGTCTTTTC | 910 |
| GAATGTAGTTTTGCACCCGTGTACATAAGCGTGTAG | 681 |
| CTATGGTTTCTCCATCACCCATTTTTCATTTCATTC | 993 |
| CTAACGCAGCAACCGGTGATGGCGAAGTTTTACTTC | 472 |
| CTATACTACCGGCACCTGATCCCCGCTAATTAGTTC | 1020 |
| CTAACTATTAAACGTGACGGTGCTGCTGAGATCTTC | 1340 |
| GAAAAAGGGAATAAACAGTCACCTTTAACAAGATAG | 556 |
| CCTAACTACTATAACGTGCCTACATAGCTTCGTACA | 636 |
| CTAAGTTCAATACGTGATCAAATATACAGCACGTTC | 1440 |
| CTAGACAGTGTAAGCACCACCAGCGACGGTCTTTTC | 498 |
| GAATTAATGTCCTGTCACGGATAGTCAATAATCTAG | 611 |
| GAACCCTCTCCGTGGCGGGTGACCTCGGGCGCATAG | 511 |
| CCTAACTACTATAATGACGTCATATAGCTTCGTACA | 525 |
| GAATCATATAATAAGCACGCACGAGATGTCCTCTAG | 802 |
| TGTACGAAGCTATTACGTGTGATTATAGTAGTTAGG | 543 |
